Assay results from different studies.
Parts stem from different laboratories: compare values within a part only. Substitutions count along the parent as printed.
Sequence of UniProt O94921 (whole entry, looked up): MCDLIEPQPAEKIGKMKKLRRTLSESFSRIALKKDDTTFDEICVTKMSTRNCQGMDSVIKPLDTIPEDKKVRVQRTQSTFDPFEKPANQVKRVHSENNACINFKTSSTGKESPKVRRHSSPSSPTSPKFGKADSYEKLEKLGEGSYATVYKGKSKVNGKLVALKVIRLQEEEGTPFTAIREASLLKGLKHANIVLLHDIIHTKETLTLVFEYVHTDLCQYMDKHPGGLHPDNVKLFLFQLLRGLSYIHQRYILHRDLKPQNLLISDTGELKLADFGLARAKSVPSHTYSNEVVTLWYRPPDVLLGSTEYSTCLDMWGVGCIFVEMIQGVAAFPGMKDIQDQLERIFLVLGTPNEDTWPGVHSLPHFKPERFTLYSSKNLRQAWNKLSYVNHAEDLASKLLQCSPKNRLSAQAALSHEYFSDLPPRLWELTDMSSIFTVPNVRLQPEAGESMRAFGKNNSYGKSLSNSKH
Sequence of UniProt Q8WU08 (whole entry, looked up): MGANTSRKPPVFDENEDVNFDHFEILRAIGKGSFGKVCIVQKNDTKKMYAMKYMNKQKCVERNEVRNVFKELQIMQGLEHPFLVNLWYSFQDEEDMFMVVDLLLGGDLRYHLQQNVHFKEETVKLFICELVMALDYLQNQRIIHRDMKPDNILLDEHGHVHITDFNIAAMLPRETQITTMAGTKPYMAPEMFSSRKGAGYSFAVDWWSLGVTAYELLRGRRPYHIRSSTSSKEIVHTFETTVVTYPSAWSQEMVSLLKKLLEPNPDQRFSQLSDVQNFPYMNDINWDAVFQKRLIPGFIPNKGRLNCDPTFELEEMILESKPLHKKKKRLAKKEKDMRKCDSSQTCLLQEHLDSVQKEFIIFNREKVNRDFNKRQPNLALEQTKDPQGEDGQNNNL
Sequence of UniProt P78356 (whole entry, looked up): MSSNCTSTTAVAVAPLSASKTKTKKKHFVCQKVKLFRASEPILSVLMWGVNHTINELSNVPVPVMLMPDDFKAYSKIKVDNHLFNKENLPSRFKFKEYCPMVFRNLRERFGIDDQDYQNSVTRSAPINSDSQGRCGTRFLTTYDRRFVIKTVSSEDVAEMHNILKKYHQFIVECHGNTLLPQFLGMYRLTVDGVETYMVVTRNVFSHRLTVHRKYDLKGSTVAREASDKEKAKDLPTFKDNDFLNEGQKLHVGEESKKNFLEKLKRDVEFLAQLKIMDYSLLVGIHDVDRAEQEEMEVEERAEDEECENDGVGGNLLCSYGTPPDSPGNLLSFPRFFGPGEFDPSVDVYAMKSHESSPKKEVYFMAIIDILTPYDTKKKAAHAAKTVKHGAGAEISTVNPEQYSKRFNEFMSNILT
Sequence of UniProt Q9UQ88 (whole entry, looked up): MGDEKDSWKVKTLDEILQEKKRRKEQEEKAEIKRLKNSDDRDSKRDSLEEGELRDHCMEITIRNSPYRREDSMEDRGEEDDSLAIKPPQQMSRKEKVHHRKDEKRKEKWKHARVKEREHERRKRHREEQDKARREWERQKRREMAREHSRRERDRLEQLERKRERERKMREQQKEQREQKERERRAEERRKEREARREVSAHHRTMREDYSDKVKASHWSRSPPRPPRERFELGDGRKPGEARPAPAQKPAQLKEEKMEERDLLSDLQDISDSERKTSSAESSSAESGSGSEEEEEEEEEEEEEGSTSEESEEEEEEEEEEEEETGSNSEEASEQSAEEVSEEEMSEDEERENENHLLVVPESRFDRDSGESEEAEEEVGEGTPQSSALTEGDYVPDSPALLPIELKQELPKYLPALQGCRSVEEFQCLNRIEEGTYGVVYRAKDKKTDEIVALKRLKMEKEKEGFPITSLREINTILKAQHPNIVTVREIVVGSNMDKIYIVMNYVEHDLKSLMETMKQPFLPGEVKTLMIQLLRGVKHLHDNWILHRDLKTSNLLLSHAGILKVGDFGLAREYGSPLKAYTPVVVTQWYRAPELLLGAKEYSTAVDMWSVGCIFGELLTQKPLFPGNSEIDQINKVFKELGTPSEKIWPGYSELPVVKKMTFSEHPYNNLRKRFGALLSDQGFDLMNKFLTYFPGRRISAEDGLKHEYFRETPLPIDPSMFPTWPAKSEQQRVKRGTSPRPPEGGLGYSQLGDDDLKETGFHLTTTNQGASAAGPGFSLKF
Sequence of UniProt P61075 (whole entry, looked up): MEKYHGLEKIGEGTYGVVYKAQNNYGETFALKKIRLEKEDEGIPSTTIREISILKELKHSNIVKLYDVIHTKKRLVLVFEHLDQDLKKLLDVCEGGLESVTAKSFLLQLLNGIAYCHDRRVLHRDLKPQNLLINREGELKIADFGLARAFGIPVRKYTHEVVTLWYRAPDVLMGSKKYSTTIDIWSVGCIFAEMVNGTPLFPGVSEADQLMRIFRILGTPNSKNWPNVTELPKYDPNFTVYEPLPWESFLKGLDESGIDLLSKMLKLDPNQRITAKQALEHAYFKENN
Sequence of UniProt Q9Y616 (whole entry, looked up): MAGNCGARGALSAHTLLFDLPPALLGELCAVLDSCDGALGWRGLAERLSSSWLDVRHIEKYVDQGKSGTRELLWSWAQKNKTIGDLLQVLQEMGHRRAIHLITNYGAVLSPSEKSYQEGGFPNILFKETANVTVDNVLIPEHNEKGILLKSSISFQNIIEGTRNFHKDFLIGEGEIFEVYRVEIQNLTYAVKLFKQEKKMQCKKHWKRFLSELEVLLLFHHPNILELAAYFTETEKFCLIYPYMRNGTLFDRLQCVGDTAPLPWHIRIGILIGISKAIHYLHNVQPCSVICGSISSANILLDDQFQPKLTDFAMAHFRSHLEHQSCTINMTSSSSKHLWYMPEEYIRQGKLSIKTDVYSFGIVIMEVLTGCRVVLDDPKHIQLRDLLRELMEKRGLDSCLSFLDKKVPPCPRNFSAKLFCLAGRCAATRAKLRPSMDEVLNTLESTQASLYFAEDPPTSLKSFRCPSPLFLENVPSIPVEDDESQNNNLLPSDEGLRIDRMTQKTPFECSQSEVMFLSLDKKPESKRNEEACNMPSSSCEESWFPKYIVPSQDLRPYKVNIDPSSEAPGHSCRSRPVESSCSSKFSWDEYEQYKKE
Sequence of UniProt Q9Y243 (whole entry, looked up): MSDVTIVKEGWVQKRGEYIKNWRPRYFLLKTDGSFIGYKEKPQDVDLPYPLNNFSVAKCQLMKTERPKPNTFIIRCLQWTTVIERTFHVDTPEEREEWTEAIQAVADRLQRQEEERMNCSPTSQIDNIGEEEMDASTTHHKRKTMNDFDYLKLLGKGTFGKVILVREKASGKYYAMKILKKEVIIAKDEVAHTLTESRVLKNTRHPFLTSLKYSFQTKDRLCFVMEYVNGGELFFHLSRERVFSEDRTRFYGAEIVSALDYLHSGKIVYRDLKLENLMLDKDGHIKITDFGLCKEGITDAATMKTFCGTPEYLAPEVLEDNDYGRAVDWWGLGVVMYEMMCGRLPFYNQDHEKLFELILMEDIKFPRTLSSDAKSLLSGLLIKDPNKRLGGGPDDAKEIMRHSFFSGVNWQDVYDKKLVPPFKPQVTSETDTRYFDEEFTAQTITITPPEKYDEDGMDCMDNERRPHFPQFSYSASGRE
Sequence of UniProt P43250 (whole entry, looked up): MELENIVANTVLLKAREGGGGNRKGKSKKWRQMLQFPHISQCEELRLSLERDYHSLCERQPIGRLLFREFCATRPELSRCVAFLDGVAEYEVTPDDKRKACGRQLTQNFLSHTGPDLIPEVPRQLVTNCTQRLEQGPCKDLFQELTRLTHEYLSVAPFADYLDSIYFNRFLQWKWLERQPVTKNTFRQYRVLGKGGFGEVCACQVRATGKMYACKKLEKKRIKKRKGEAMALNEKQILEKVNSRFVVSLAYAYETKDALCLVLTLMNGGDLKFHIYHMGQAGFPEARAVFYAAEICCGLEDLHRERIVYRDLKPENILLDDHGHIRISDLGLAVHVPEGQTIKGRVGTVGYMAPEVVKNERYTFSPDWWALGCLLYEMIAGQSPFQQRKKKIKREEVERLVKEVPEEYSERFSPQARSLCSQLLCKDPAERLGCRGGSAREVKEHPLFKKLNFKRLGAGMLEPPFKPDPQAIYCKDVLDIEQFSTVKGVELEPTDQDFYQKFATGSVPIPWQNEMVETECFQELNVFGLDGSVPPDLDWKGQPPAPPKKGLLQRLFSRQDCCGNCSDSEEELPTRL
Sequence of UniProt O75676 (whole entry, looked up): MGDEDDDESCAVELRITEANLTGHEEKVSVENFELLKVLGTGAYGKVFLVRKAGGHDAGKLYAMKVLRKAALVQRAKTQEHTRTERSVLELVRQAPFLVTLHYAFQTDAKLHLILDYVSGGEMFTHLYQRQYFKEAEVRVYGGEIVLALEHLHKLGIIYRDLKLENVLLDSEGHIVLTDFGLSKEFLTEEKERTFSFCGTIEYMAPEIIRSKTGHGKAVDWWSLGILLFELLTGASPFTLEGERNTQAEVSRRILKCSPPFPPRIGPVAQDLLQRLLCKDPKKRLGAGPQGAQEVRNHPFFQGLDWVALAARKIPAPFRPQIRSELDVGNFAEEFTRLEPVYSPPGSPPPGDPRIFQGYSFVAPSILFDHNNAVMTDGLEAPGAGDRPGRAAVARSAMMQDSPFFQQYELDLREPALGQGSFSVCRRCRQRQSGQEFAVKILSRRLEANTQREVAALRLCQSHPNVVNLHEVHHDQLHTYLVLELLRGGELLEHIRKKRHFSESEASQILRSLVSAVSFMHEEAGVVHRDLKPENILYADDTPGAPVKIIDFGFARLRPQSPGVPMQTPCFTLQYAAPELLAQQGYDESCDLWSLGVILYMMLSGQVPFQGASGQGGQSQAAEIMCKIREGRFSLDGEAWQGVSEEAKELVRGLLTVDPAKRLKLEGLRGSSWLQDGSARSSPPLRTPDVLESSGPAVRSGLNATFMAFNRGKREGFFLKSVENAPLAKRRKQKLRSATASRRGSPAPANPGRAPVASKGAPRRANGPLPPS

Sample 1 — target: CCNF, cyclin fold, Cln2 fusion (human); technique: yeast growth competition, sequencing; sample: yeast; setting: strong parent motif; reference: not given; reading: higher = stronger binding; starting sequence: viral docking peptide; YKVKRRLVFGADD
| Change | normalised enrichment score |
| --- | --- |
| YKVKRRYVFGADD [L7Y] | 0.528 |
| YKVKYRLVFGADD [R5Y] | 1.13 |
| YKVKRRLHFGADD [V8H] | 9.14 |
| YKVKRRFVFGADD [L7F] | 1.01 |
| YKVKRRLVRGADD [F9R] | 0.3 |
| YGVKRRLVFGADD [K2G] | 8.61 |
| YKVKRRTVFGADD [L7T] | 0.464 |
| YKVKRRLVFGQDD [A11Q] | 8.52 |

Sample 2 — technique: competition with immobilised ligand; concentration: 1 µM
SMILES: Cn1cncc1[C@@](O)(COc1ccc(C#N)cc1-c1ccc(OC(F)(F)F)cc1)c1ccc(C#N)cc1
| target | test | remaining binding |
| --- | --- | --- |
| MAPK13 (Homo sapiens, UniProt O15264) | cell-free assay | 90% |
| CDK14 (Homo sapiens, UniProt O94921) | cell-free assay | 100% |
| CAMK4 (Homo sapiens, UniProt Q16566) | cell-free assay | 100% |
| CRK2 (Plasmodium falciparum, UniProt P61075) | cell-free assay | 69% |
| STK32A (Homo sapiens, UniProt Q8WU08) | cell-free assay | 75% |
| PIP4K2B (Homo sapiens, UniProt P78356) | cell-free assay | 100% |
| CDK11A (Homo sapiens, UniProt Q9UQ88) | binding | 100% |
| CAMKK2 (Homo sapiens, UniProt Q96RR4) | cell-free assay | 97% |
| AKT3 (Homo sapiens, UniProt Q9Y243) | cell-free assay | 100% |
| HASPIN (Homo sapiens, UniProt Q8TF76) | cell-free assay | 100% |
| OXSR1 (Homo sapiens, UniProt O95747) | cell-free assay | 75% |
| Ribosomal protein S6 kinase alpha-4, N-terminal kinase domain (RPS6KA4, Homo sapiens, UniProt O75676) | cell-free assay | 93% |
| MTOR (Homo sapiens, UniProt P42345) | cell-free assay | 100% |
| FLT3 (Homo sapiens, UniProt P36888, K663Q) | cell-free assay | 64% |
| STK36 (Homo sapiens, UniProt Q9NRP7) | cell-free assay | 93% |
| PRKCH (Homo sapiens, UniProt P24723) | cell-free assay | 95% |
| IRAK3 (Homo sapiens, UniProt Q9Y616) | cell-free assay | 91% |

Sample 3 — observed: peptide-MHC binding; molecule type: peptide; concentration: concentration not given
Target: HLA class I histocompatibility antigen, C alpha chain, allele C*04:01 (Homo sapiens, UniProt P10321)
| Molecule | binding |
| --- | --- |
| FFIQTDAAI | inactive |
| YLQQNTHTL | inactive |
| YMKKRYEEF | inactive |
| FPHTELANL | inactive |
| DEVEFLGHY | inactive |
| YQRALHTSI | inactive |
| FRDRGQHVL | inactive |
| ELFARSSDPR | inactive |

Further values, each from its own experiment
| SMILES | target | test | setting | scale | endpoint | value |
| --- | --- | --- | --- | --- | --- | --- |
| O=C1NC(=O)c2c1c1c3ccccc3n3c1c1c2c2ccccc2n1[C@H]1CC[C@@H]3O1 | G protein-coupled receptor kinase 6 (GRK6, Homo sapiens, UniProt P43250) | enzyme activity, inhibitor | 0.5 µM | reference: control | remaining activity | 55.6% |
